Published values from different studies.
Numbered parts are unrelated; each lists some results of a single study.

Block 1
Target: RNA binding protein fox-1 homolog 2, RRM domain, GST-SBP tag (RBFOX2, Homo sapiens, UniProt O43251-10, residues 100-194)
Technique: RNA Bind-n-Seq
Molecule type: RNA
Matrix: in vitro
Concentration: 365 nM
Setting: natural RNA segment, single round, ends assumed
Baseline: no-protein control
Direction: higher = stronger binding
`GGGAGUUCUACAGUCCGACGAUCCCAAUACCCUAGAAGAAAACCCGAGGGACAGCAGAUUCCACAGGACACGAAGGCUGCCCCUGUAAGGUUUCAAUGCAUACAAUAAAAGAGCUUUAUCCCUAACUUCUGUUUGGAAUUCUCGGGUGCCAA`: “RBNS enrichment (R)” 2.61.
`GGGAGUUCUACAGUCCGACGAUCAAAGAUUAAAUUCUCCAAUGAUAUUUUAAAAAAUAUCAACCUACAUGCACUUUAGAAUGUAAAAUAACAAUGACUAUUUUAAACUCGAAGACCCACUAUUUUGAGUAUUUUGGAAUUCUCGGGUGCCAA` — result for “RBNS enrichment (R)”: 0.883.
Under “RBNS enrichment (R)”, `GGGAGUUCUACAGUCCGACGAUCAUAUAUUUUCGGCAGAUUGAGCUUUAGAGAUGCAACGACUUUUCCCUCUGUGCCUGUAGGAAUGCUCAGUGGAGCUGACCGAGGAAGAAAAUAAAAGAGCCAGUCAUUGAUGGAAUUCUCGGGUGCCAA` is recorded as 3.27.

Block 2
Target: Interferon regulatory factor 5, full length, phosphomimetic (IRF5, Homo sapiens, UniProt Q13568-2, residues 1-514, K96S/S451D/S453D/S456D/S462D)
Technique: protein-binding microarray
Molecule type: double-stranded DNA, one strand shown
Matrix: in vitro
Concentration: 250 nM
Setting: 60-bp whole probe
Together with: salmon DNA 0.4 mg/ml
Baseline: random background probes
Direction: higher = stronger binding
All sequences stand within: GCCTAGCAC … GTCTTGATTCGCTTGACGCTGCTG
For `TTAGGACTGGACACTGGGTTGGTGCTA`, the log fluorescence was -0.635 z-score.
The log fluorescence of `GACGGTACCCTACTGCTGACGTGCTAG` is reported as -0.326 z-score.
`GATGAACTGAGTATCGAGACGTGCTAG` has a log fluorescence of 1.93 z-score.
The log fluorescence of `ATAGGACTGGGACTGGGTTAGTGCTAG` is reported as -0.706 z-score.
With `GACGATTTCGCGACTGGAGACGTGCTA` the log fluorescence was 0.395 z-score.

Block 3
Target: Histone acetyltransferase KAT6A, winged helix 1, GST fusion (KAT6A, Homo sapiens, UniProt Q92794, residues 1-85)
Technique: protein binding microarray
Molecule type: double-stranded DNA, one strand shown
Matrix: in vitro
Concentration: not given
Setting: 8-mer, flanks averaged, mean of 2 arrays, mostly near background
Baseline: not given
Direction: higher = stronger binding
Residues (chain): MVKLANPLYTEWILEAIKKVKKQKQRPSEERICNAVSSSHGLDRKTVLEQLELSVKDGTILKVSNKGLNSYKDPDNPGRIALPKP
For `ACTTTCCT`, the E-score was -0.0694.
The E-score of `CATCGAGG` is reported as -0.0224.
`AGACTATA` gave an E-score of -0.0312.
The E-score of `GGTACCTA` is reported as -0.0867.

Other studies, line by line
For `PhoQ, residues 284 288 289 292 302 303 AMDMFI`, the fold induction was 0.952 (PhoP, residues 12 14 15 18 19 TTLRV (Escherichia coli, UniProt P23836); Sort-seq, item: YFP reporter; E. coli; PhoQ-PhoP variant library, together with: 10 µM Mg2+; baseline: high Mg2+ state, higher = stronger signaling).

Excerpt of the above (block 3):
The E-score of `GGTACCTA` is reported as -0.0867.
